Measurements pooled from the literature.
Each numbered part is a random draw from the data of one study; scales do not carry over between parts. Substitutions count along the parent as printed.
Sequence of UniProt Q15569 (whole entry, looked up): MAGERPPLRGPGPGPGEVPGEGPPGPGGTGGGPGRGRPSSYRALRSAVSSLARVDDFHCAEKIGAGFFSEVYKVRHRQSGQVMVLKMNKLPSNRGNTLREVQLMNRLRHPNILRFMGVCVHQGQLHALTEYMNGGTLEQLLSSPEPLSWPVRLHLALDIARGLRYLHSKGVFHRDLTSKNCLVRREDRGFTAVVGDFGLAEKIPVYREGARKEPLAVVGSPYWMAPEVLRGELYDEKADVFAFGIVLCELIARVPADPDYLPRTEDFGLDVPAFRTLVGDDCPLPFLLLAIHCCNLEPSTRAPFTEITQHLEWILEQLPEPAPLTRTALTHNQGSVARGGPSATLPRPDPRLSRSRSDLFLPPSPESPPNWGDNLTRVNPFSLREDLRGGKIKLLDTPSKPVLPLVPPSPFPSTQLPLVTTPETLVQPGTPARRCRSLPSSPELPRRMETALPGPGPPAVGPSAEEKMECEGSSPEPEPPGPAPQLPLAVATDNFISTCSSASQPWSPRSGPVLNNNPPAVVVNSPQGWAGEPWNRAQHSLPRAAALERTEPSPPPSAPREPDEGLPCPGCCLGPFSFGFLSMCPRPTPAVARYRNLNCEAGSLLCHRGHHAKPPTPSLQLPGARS
Sequence of UniProt P10721 (whole entry, unmodified, looked up): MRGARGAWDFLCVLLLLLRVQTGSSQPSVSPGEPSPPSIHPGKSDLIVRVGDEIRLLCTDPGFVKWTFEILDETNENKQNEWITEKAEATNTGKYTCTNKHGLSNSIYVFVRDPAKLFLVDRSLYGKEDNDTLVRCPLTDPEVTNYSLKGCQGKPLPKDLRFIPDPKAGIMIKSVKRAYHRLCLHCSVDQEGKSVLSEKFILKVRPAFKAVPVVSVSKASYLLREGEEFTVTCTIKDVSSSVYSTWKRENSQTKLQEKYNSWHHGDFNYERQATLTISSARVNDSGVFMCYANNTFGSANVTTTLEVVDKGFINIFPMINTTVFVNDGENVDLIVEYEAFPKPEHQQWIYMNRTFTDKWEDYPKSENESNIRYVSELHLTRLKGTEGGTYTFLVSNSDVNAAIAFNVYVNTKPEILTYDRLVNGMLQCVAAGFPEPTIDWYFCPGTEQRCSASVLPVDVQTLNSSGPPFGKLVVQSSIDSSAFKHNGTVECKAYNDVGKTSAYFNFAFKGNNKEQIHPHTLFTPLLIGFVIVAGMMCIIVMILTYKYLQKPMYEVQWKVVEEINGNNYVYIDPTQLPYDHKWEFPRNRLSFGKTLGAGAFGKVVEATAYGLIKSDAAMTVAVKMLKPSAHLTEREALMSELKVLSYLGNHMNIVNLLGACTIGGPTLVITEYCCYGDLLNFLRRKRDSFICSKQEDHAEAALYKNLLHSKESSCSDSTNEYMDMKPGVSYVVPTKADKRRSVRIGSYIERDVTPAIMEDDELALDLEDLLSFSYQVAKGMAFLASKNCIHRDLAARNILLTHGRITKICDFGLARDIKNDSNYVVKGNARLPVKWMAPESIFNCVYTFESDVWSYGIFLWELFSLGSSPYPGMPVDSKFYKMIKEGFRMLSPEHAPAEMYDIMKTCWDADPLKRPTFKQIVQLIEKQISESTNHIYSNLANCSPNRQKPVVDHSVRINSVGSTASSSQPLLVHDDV
Sequence of UniProt Q9BRS2 (whole entry, looked up): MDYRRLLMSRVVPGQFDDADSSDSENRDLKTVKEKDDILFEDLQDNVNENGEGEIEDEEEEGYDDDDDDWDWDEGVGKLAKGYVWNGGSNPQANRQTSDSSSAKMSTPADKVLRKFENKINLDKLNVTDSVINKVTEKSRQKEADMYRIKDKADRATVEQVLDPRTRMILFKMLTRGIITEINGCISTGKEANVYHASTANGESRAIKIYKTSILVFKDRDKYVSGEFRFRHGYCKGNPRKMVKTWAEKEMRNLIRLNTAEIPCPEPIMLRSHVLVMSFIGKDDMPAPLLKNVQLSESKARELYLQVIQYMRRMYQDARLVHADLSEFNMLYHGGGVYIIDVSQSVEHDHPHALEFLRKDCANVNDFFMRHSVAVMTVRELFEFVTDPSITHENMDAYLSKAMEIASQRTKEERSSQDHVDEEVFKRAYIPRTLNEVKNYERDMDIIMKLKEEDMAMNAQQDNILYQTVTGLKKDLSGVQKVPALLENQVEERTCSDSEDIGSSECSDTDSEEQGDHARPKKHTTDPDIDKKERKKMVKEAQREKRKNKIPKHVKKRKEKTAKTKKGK
Sequence of UniProt O14920 (whole entry, looked up): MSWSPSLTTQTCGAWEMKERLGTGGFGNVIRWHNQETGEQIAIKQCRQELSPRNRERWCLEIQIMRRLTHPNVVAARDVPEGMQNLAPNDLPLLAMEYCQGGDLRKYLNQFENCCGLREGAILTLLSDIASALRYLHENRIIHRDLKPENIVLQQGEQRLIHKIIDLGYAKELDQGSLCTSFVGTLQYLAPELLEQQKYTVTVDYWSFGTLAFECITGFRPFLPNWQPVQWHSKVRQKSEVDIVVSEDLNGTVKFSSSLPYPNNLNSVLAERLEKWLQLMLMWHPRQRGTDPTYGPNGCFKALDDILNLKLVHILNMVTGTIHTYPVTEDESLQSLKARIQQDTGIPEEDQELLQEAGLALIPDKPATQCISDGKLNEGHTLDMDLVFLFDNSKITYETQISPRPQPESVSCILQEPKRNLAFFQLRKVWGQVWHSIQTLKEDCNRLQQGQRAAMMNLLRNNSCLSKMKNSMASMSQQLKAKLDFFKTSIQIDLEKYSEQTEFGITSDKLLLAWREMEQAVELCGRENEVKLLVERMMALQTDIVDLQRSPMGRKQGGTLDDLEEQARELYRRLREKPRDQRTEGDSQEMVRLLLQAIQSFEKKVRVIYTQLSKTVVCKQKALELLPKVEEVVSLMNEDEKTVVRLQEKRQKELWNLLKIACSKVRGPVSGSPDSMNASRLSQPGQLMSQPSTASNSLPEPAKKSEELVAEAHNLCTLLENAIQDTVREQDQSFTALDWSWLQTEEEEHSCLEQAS
Sequence of UniProt Q8NE63 (whole entry, looked up): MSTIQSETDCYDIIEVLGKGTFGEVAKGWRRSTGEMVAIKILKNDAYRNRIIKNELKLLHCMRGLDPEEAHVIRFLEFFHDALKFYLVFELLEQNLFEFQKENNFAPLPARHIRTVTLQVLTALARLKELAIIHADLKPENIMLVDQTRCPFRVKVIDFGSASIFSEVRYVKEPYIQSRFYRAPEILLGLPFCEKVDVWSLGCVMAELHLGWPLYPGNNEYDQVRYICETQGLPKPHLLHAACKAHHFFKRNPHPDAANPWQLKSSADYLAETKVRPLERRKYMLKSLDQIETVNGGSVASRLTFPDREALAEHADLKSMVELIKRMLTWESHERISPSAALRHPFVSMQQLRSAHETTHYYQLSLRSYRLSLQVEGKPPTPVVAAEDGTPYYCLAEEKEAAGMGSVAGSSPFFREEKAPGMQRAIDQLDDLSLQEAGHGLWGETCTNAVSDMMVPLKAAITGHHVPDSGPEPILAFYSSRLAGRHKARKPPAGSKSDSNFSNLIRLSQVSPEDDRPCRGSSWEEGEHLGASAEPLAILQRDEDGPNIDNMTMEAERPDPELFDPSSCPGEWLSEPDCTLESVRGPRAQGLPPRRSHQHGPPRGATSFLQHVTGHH
Sequence of UniProt Q8NI60 (whole entry, looked up): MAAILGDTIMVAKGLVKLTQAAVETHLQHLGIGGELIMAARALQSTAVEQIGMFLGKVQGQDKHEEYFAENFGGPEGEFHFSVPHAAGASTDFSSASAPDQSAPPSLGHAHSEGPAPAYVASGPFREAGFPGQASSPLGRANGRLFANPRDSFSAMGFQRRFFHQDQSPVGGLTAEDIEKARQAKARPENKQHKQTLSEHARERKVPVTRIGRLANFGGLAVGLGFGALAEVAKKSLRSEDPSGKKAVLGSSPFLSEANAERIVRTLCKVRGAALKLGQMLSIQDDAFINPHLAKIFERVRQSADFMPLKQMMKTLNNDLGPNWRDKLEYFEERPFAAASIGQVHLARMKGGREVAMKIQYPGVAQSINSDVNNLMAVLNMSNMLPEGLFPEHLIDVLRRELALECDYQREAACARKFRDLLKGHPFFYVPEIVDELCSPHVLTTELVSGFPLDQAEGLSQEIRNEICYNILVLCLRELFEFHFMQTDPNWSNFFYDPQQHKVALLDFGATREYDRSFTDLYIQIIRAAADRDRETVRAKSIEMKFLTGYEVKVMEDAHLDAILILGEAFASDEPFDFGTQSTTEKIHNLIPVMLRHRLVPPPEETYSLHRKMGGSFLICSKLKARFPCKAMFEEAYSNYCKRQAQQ
Sequence of UniProt P41743 (whole entry, looked up): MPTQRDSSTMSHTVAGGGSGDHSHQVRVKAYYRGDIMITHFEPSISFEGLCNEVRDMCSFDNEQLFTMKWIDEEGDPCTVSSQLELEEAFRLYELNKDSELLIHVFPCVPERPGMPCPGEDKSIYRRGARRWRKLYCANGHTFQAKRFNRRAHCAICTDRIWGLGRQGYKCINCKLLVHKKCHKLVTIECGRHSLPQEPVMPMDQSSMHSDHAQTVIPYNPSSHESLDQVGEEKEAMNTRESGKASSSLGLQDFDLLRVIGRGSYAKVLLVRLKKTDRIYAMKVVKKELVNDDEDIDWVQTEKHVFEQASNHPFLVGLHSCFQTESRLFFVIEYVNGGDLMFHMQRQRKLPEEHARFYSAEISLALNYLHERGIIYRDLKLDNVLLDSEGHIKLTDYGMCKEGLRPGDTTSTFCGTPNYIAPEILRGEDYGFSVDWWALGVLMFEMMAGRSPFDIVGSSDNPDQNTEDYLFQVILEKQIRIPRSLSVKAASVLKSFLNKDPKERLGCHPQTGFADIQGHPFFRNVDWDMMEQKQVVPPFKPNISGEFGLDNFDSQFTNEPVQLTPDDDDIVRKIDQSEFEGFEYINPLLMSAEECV

Block 1 — observed: enzyme activity; action: inhibitor; tested at: 0.5 µM; baseline: control
Target: Mitogen-activated protein kinase 9 (MAPK9, Homo sapiens, UniProt P45984)
`CO[C@H]1C[C@@H]2CC[C@@H](C)[C@@](O)(O2)C(=O)C(=O)N2CCCC[C@H]2C(=O)O[C@H]([C@H](C)C[C@@H]2CC[C@@H](O)[C@H](OC)C2)CC(=O)[C@H](C)/C=C(\C)[C@@H](O)[C@@H](OC)C(=O)[C@H](C)C[C@H](C)/C=C/C=C/C=C/1C` gave a remaining activity of 98.4%.
`COc1cc2ncnc(Nc3ccc(Oc4ccccc4)cc3)c2cc1OC` has a remaining activity of 99%.
For `Nc1ccc2ncnc(NCCc3ccc(Oc4ccccc4)cc3)c2c1`, the remaining activity was 85%.
With `CN(C)c1ccc(C=C2C(=O)Nc3ccccc32)cc1` the remaining activity was 103%.
With `CCOC(=O)c1c(C)[nH]c(/C=C2\C(=O)Nc3ccccc32)c1C` the remaining activity was 93.9%.
For `O=S(=O)(c1cccc2cnccc12)N1CCCNCC1`, the remaining activity was 87%.
For `NCCNc1ncc(C(N)=O)c(Nc2cccc(C(F)(F)F)c2)n1`, the remaining activity was 94.1%.
`C#Cc1cccc(Nc2ncnc3cc(OCCOC)c(OCCOC)cc23)c1` gave a remaining activity of 98.4%.
With `CC(C)[C@H](CO)Nc1nc(Nc2cc(N)cc(Cl)c2)c2ncn(C(C)C)c2n1` the remaining activity was 99.8%.
With `Cn1c2ccccc2c2c3c(c4c5ccccc5n(CCC#N)c4c21)CNC3=O` the remaining activity was 86%.
With `OCC(O)CCON=C1C(c2c(O)[nH]c3ccccc23)=Nc2ccccc21` (stereo not drawn) the remaining activity was 44.3%.
The remaining activity of `O=C1NC(=O)C(c2cn(CCCn3ccnc3)c3ccccc23)=C1Nc1ccccc1` is reported as 101%.
`O=C(O)c1ccc2c3c1cccc3c(=O)n1c3ccccc3nc21` gave a remaining activity of 97.5%.
`O=C(Nc1cccc(Nc2cc(Nc3cccc(C(F)(F)F)c3)ncn2)c1)C1CC1` has a remaining activity of 98.2%.

Block 2 — tested at: 1 µM
Structure (SMILES): CCc1ccccc1C(=O)Nc1n[nH]c2c(C)c(F)c(C3C(C#N)=C(C)N(C)C(C)=C3C#N)cc12
The remaining binding was 43% (GRK1 (Homo sapiens, UniProt Q15835); cell-free assay, competition with immobilised ligand).
It gave 43% for remaining binding (eIF-2-alpha kinase GCN2, C-terminal kinase domain (EIF2AK4, Homo sapiens, UniProt Q9P2K8, S808G); cell-free assay, competition with immobilised ligand).
The remaining binding was 100% (HIPK4 (Homo sapiens, UniProt Q8NE63); cell-free assay, competition with immobilised ligand).
The remaining binding was 93% (CDC42BPG (Homo sapiens, UniProt Q6DT37); competition binding).
TLK2 (Homo sapiens, UniProt Q86UE8); cell-free assay, competition with immobilised ligand — remaining binding: 100%.
For ZAP70 (Homo sapiens, UniProt P43403); cell-free assay, competition with immobilised ligand: remaining binding read 100%.
For TRPM6 (Homo sapiens, UniProt Q9BX84); cell-free assay, competition with immobilised ligand: remaining binding read 100%.
The remaining binding was 100% (ULK2 (Homo sapiens, UniProt Q8IYT8); cell-free assay, competition with immobilised ligand).
PRKCE (Homo sapiens, UniProt Q02156); cell-free assay, competition with immobilised ligand — remaining binding: 19%.
The remaining binding was 94% (MAP3K12 (Homo sapiens, UniProt Q12852); cell-free assay, competition with immobilised ligand).
The remaining binding was 75% (CDK18 (Homo sapiens, UniProt Q07002); cell-free assay, competition with immobilised ligand).
It gave 82% for remaining binding (PRKCI (Homo sapiens, UniProt P41743); cell-free assay, competition with immobilised ligand).
RIOK1 (Homo sapiens, UniProt Q9BRS2); cell-free assay, competition with immobilised ligand — remaining binding: 82%.
DCLK1 (Homo sapiens, UniProt O15075); cell-free assay, competition with immobilised ligand — remaining binding: 87%.
The remaining binding was 100% (STK32A (Homo sapiens, UniProt Q8WU08); binding, competition with immobilised ligand).
For COQ8A (Homo sapiens, UniProt Q8NI60); cell-free assay, competition with immobilised ligand: remaining binding read 84%.
The remaining binding was 94% (IKBKB (Homo sapiens, UniProt O14920); cell-free assay, competition with immobilised ligand).
LRRK2 (Homo sapiens, UniProt Q5S007); cell-free assay, competition with immobilised ligand — remaining binding: 100%.
MAP3K20 (Homo sapiens, UniProt Q9NYL2); cell-free assay, competition with immobilised ligand — remaining binding: 90%.
For TESK1 (Homo sapiens, UniProt Q15569); cell-free assay, competition with immobilised ligand: remaining binding read 96%.
For KIT (Homo sapiens, UniProt P10721, V559D); cell-free assay, competition with immobilised ligand: remaining binding read 83%.

Block 3 — method: RNAcompete; molecule type: RNA; matrix: in vitro; tested at: 20 nM; notes: 7-mer, probes averaged, single round; baseline: mean of 7-mers; direction: higher = stronger binding
Target: PABPC1L2, full length, GST fusion (mouse, UniProt A0ABA7IW68)
Target sequence (chain): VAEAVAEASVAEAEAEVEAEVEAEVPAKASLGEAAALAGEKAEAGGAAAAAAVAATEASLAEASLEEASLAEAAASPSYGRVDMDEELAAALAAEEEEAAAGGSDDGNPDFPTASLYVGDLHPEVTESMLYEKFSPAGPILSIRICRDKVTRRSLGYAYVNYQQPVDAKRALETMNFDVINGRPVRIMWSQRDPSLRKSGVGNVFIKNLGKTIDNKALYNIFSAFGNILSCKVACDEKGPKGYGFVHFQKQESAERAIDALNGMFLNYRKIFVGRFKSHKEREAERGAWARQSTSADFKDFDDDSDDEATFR
`GAAUAAG` gave a 7-mer Z-score of -0.0699.
`UGUCCGG` has a 7-mer Z-score of -0.264.
`UCACUUC` gave a 7-mer Z-score of -0.405.
The 7-mer Z-score of `UCUUCUA` is reported as -0.329.
For `GUGUAAA`, the 7-mer Z-score was 0.878.
`ACUGGCA` gave a 7-mer Z-score of 0.0823.
For `CGUUUGU`, the 7-mer Z-score was -0.547.
With `UUAAAAG` the 7-mer Z-score was 1.4.

Block 4 — method: DHFR PCA, deep sequencing; matrix: yeast; with: (+)-ABA 710 µM; baseline: wild-type fitted maximum; direction: higher = stronger binding
Target: ABI1, truncated, D143A, DHFR fusion (Arabidopsis thaliana)
Notes: methotrexate growth selection, single substitutions
Starting sequence: PYL1, truncated, DHFR fusion (Arabidopsis thaliana); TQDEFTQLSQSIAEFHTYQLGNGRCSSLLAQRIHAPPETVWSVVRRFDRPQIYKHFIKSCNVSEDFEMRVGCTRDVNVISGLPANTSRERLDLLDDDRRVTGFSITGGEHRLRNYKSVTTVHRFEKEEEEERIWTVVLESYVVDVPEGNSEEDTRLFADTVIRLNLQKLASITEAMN
`V143A` — result for “relative binding score”: 88.2%.
For `G23H`, “relative binding score” read 101%.
For `E129R`, “relative binding score” read 105%.
For `F47W`, “relative binding score” read 92.6%.
`F157S` — result for “relative binding score”: 3.53%.
`G148T` — result for “relative binding score”: 95.5%.
`F124L` — result for “relative binding score”: 112%.
Under “relative binding score”, `T154E` is recorded as 2.99%.

Repeated from above (block 3):
`UGUCCGG` has a 7-mer Z-score of -0.264.
`UCACUUC` gave a 7-mer Z-score of -0.405.
The 7-mer Z-score of `UCUUCUA` is reported as -0.329.
For `GUGUAAA`, the 7-mer Z-score was 0.878.
`ACUGGCA` gave a 7-mer Z-score of 0.0823.
For `CGUUUGU`, the 7-mer Z-score was -0.547.
With `UUAAAAG` the 7-mer Z-score was 1.4.
